Assay results pooled from the literature.
Numbered parts are unrelated; each lists some results of a single study. “And” joins repeats or separate records; there may be more than shown.
Chain of UniProt P68400 (whole entry, looked up): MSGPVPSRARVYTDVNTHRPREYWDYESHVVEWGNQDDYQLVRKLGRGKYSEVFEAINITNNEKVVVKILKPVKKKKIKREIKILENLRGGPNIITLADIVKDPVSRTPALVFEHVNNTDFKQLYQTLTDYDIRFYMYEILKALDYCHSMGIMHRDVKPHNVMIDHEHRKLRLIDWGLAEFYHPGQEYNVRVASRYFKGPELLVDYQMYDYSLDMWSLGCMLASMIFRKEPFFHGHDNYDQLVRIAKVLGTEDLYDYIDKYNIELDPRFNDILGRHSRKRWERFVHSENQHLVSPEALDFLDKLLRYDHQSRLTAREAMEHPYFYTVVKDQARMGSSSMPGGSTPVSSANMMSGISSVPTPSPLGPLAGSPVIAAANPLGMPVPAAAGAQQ
Chain of UniProt P10721 (whole entry, unmodified, looked up): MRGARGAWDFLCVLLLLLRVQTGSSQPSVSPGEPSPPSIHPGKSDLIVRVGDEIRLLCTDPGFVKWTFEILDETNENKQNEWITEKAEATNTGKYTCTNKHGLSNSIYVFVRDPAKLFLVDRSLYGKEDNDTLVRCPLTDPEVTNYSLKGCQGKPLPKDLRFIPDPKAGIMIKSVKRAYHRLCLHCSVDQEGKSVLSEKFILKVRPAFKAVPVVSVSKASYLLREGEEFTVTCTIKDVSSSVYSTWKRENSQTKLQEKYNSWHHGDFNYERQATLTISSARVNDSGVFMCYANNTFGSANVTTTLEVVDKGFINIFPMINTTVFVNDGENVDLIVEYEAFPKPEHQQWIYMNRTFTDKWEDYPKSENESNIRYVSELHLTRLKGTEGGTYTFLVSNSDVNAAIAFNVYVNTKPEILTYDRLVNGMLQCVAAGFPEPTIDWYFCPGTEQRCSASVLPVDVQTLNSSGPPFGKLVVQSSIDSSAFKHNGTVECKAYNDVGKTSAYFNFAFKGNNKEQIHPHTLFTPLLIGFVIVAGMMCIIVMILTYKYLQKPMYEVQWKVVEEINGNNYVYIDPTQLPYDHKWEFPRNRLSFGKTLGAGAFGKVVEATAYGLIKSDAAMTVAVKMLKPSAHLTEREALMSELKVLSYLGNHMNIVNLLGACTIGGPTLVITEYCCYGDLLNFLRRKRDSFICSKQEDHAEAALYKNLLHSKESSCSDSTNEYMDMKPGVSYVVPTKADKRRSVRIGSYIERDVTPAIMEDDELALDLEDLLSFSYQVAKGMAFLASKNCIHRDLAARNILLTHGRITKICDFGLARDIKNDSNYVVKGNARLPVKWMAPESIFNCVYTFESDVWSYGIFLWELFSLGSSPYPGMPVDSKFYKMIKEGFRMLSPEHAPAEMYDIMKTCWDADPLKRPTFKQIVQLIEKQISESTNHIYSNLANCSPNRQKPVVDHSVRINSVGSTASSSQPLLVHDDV
Chain of UniProt O15197 (whole entry, looked up): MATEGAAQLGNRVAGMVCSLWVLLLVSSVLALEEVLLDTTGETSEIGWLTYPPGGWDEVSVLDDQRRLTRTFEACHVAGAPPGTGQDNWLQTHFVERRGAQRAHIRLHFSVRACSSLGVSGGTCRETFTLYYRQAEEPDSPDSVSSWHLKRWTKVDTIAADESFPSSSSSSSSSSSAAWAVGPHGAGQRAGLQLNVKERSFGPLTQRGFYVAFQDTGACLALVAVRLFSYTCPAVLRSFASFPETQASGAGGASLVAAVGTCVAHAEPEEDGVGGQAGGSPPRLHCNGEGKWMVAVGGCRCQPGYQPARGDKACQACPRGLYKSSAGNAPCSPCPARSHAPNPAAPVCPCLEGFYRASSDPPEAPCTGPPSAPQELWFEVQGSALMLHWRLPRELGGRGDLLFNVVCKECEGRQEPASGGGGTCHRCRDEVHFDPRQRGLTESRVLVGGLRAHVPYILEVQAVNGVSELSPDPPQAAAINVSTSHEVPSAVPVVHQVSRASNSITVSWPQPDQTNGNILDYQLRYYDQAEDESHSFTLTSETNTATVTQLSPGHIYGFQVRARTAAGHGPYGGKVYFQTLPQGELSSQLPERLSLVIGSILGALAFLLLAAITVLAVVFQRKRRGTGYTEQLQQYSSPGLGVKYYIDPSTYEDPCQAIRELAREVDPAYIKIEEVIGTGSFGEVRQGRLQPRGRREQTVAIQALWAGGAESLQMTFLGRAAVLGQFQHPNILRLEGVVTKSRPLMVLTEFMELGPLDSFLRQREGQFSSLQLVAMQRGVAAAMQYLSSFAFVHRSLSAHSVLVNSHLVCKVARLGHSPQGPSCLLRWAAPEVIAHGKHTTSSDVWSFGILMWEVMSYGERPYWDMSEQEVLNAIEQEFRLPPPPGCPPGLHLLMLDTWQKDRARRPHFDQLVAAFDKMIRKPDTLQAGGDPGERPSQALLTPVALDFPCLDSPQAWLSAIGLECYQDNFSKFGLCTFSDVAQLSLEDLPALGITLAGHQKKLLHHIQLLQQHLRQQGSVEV
Chain of UniProt P49761 (whole entry, looked up): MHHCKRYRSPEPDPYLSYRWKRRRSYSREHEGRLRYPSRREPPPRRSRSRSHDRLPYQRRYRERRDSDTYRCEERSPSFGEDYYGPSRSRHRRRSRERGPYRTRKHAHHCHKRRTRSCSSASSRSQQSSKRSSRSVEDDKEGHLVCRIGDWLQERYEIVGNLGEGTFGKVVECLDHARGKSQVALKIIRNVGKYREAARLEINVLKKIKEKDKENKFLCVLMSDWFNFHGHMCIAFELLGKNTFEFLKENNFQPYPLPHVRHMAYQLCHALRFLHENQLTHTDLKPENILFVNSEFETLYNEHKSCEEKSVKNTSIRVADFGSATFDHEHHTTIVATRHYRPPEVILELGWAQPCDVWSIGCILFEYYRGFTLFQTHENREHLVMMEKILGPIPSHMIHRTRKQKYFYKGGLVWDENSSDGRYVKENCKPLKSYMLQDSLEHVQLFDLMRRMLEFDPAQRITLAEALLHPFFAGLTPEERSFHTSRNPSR
Chain of UniProt Q6P3R8 (whole entry, looked up): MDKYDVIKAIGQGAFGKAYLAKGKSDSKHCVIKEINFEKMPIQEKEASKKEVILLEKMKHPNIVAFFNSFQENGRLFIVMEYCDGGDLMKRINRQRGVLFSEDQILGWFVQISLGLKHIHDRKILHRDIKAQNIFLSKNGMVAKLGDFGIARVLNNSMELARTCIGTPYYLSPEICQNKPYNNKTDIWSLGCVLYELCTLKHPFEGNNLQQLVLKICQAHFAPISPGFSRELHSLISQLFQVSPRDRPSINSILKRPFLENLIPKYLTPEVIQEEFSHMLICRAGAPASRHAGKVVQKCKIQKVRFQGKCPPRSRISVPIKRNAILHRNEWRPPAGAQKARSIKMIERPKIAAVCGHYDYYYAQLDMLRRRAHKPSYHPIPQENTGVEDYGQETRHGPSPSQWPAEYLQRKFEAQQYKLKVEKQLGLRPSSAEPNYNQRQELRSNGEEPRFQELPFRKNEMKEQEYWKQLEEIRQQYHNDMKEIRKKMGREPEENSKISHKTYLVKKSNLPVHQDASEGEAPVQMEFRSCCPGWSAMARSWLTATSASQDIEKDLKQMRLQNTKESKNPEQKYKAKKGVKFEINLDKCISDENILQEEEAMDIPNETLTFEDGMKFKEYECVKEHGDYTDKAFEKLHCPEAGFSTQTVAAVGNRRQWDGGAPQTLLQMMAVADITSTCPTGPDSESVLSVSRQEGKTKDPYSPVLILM

Set 1
SMILES: C[C@H](c1ccnc(Nc2nc3ccc(-c4cc(N(C)C)ncn4)cc3[nH]2)c1)N1CCN(C(=O)CC(F)(F)F)CC1
Technique: competition with immobilised ligand
Concentration: 0.1 µM
Endpoint: remaining binding
EPHB6 (Homo sapiens, UniProt O15197); cell-free assay: 100%
KIT (Homo sapiens, UniProt P10721, D816V); cell-free assay: 96%
CSNK2A1 (Homo sapiens, UniProt P68400); cell-free assay: 100%
PKN2 (Homo sapiens, UniProt Q16513); cell-free assay: 95%
PIK3CA (Homo sapiens, UniProt P42336, E545K); cell-free assay: 100%
CDK14 (Homo sapiens, UniProt O94921); cell-free assay: 100%
GRK7 (Homo sapiens, UniProt Q8WTQ7); cell-free assay: 89%
PIP4K2C (Homo sapiens, UniProt Q8TBX8); cell-free assay: 96%
KIT (Homo sapiens, UniProt P10721, D816H); cell-free assay: 82%
SLK (Homo sapiens, UniProt Q9H2G2); cell-free assay: 99%
EGFR (Homo sapiens, UniProt P00533, L858R); cell-free assay: 95%
NEK5 (Homo sapiens, UniProt Q6P3R8); cell-free assay: 100%
FLT3 (Homo sapiens, UniProt P36888, K663Q); cell-free assay: 60%
CLK3 (Homo sapiens, UniProt P49761); cell-free assay: 100%
IGF1R (Homo sapiens, UniProt P08069); cell-free assay: 98%
Tyrosine-protein kinase ABL1, phosphorylated (ABL1, Homo sapiens, UniProt P00519, H396P); cell-free assay: 87%
MET (Homo sapiens, UniProt P08581); cell-free assay: 100%
Myosin-IIIb (MYO3B, Homo sapiens, UniProt Q8WXR4); binding: 100%
PIK3CG (Homo sapiens, UniProt P48736); cell-free assay: 100%
STK4 (Homo sapiens, UniProt Q13043); cell-free assay: 100%
CSNK1G3 (Homo sapiens, UniProt Q9Y6M4); cell-free assay: 100%
WNK4 (Homo sapiens, UniProt Q96J92); cell-free assay: 80%

Set 2
Target: Beta-1 adrenergic receptor (ADRB1, Homo sapiens, UniProt P08588)
Chain of UniProt P08588 (whole entry, looked up): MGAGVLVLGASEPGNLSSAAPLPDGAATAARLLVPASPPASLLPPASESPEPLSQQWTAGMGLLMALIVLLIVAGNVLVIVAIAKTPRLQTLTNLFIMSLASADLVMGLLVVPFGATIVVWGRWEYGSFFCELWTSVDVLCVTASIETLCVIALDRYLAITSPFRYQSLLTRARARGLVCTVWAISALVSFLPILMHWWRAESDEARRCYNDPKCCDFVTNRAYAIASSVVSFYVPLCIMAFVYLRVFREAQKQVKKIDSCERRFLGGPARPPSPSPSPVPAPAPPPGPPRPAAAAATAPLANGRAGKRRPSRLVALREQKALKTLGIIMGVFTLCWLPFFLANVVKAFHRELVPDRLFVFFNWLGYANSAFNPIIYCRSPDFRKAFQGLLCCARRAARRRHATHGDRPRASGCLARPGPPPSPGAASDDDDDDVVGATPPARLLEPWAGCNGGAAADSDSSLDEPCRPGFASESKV
Mode: antagonist
Endpoint: IC50
C#CC1(OCC(O)CN2CCN(c3cccc(C(F)(F)F)c3)CC2)CCCCC1 (stereo not drawn): ≥ 100 µM
NCCn1cc(C(=O)NCC(O)c2ccccc2C(F)(F)F)nn1 (stereo not drawn): ≥ 100 µM
N#Cc1ccc(C(=O)Nc2ccc([C@@H](O)[C@H]3COCC(=O)N3Cc3ccc(F)cc3)cc2)cc1: ≥ 100 µM
COc1ccccc1N1CCN(CC(=O)NC2CCN(C3CC3)CC2)CC1: ≥ 100 µM
COc1ccc2[nH]cc(C3=CCN(c4ccc(C#N)cc4F)CC3)c2c1: ≥ 100 µM
COC(=O)[C@H](Cc1cccc(C(=N)N)c1)[C@@H](C)NC(=O)c1ccc(-c2cc[n+]([O-])cc2)cc1: ≥ 100 µM
COc1ccc(-c2cnc3[nH]nc(-c4ccc(F)cc4C)c3n2)cn1: ≥ 100 µM
CNC(=O)c1cc2cc(-c3c(C)noc3C)nc(-c3ccccc3C)c2o1: ≥ 100 µM
O=c1c2nc(-c3ccccc3)ccc2ncn1-c1ccc(F)cc1F: ≥ 100 µM
Cc1ccc(CNc2ncnc3[nH]ncc23)o1: ≥ 100 µM
O=C(O)Cn1cc(-c2cccc(-c3nn4c(=O)cc(N5CCNCC5)nc4s3)c2)cn1: ≥ 100 µM
CCN(CC)c1ccc(C2=C(Cl)C(=O)c3ncccc3C2=O)cc1: ≥ 100 µM
CC#CCn1cc2c3c(cccc31)[C@H](CC(C)C)N[C@H](C(=O)NCCN1CCOCC1)C2: ≥ 100 µM
OC(COc1cccc(CN2CCC(c3ncon3)CC2)c1)CN1CCOCC1 (stereo not drawn): ≥ 100 µM
Cc1nc(Nc2n[nH]c3c2CN(C(=O)N[C@H](CN(C)C)c2ccccc2)C3(C)C)c2sccc2n1: ≥ 100 µM
CCOc1ccc(C(=O)N2CCc3cc(OC)c(OC)cc3C2COc2ccc3c(C)cc(=O)oc3c2)cc1OCC (stereo not drawn): ≥ 100 µM
C[C@@H](O)[C@H](NC(=O)[C@@H]1CSSC[C@H](NC(=O)[C@H](N)Cc2ccccc2)C(=O)N[C@@H](Cc2ccc(O)cc2)C(=O)N[C@H](Cc2c[nH]c3ccccc23)C(=O)N[C@@H](CCCCN)C(=O)N1)C(N)=O: ≥ 100 µM
Cc1cc(O)c(C(C)(C)C)cc1Sc1cc(C(C)(C)C)c(O)cc1C: 14.1 µM
Cc1noc2c(-c3cccnc3NCCN(C)C)cc(-c3ccccc3)nc12: ≥ 100 µM
COc1ccc(S(=O)(=O)N2CCN(c3ccccc3OC)CC2)cc1OC: ≥ 100 µM

Set 3
Target: Serine/threonine-protein kinase D2 (PRKD2, Homo sapiens, UniProt Q9BZL6)
Chain of UniProt Q9BZL6 (whole entry, looked up): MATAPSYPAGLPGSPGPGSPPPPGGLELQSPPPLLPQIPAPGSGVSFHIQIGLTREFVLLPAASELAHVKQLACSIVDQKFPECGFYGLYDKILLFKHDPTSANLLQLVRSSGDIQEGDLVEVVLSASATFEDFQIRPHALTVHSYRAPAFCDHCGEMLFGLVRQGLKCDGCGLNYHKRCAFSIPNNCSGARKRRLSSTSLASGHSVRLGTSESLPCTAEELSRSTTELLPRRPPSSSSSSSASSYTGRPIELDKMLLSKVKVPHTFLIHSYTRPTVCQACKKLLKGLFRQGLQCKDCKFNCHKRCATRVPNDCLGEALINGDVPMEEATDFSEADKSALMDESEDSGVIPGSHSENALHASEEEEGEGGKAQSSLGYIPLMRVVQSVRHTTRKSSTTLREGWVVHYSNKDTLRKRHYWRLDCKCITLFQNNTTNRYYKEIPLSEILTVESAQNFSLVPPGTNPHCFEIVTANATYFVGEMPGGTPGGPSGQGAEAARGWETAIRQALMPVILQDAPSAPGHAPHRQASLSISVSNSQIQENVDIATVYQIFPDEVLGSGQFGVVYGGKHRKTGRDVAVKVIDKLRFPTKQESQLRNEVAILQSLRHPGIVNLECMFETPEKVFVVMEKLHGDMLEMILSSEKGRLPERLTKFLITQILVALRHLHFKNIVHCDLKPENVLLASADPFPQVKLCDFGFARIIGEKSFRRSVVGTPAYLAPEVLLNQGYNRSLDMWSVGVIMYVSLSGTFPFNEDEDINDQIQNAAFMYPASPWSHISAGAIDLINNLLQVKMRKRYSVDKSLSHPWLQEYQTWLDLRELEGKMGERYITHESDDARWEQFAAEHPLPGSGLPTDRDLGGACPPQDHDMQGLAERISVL
Observed: enzyme activity
Mode: inhibitor
Concentration: 0.5 µM
Baseline: control
Endpoint: remaining activity
CC(C)(C)n1nc(Cc2cccc3ccccc23)c2c(N)ncnc21: 30.7%
CCc1[nH]c(-c2ccc(OC)cc2)nc1-c1ccncc1: 102%
O=S(=O)(NCCNC/C=C/c1ccc(Br)cc1)c1cccc2cnccc12: 75.9%
Nc1nc(Nc2ccc(S(N)(=O)=O)cc2)nn1C(=O)c1c(F)cccc1F: 86%
CSc1nc(-c2ccnc(N[C@@H](C)c3ccccc3)c2)c(-c2ccc(F)cc2)[nH]1 (racemic): 86.4%
CCCC(=O)Oc1ccc2[nH]c(C(=O)c3cc4ccccc4[nH]3)cc2c1: 91.7%
NC(=O)c1ccc(N(C(N)=O)c2c(F)cccc2F)nc1-c1ccc(F)cc1F: 81.8%
O=C1NC(=O)C(c2c[nH]c3ccccc23)=C1c1c[nH]c2ccccc12: 87.4%
N#CC(=C(N)Sc1ccc(N)cc1)c1ccccc1C(F)(F)F: 93.4%
COc1ccc(S(=O)(=O)N(CCO)c2ccccc2CN(C)CC=Cc2ccc(Cl)cc2)cc1: 99.8%
Nc1nccc(-c2c(-c3ccc(F)cc3)ncn2C2CCNCC2)n1: 50.4%
Cc1cncc2cccc(S(=O)(=O)N3CCCN(C(=O)CN)C[C@@H]3C)c12: 96%
Oc1ccc(Nc2nc(-c3ccc(Cl)cc3)cs2)cc1: 102%
Nc1ncnc2c1cnn2-c1ccccc1: 126%
CC#CC(=O)Nc1cc2c(Nc3ccc(F)c(Cl)c3)ncnc2cn1: 97.6%
CC(=O)c1ccc(N2CCOCC2)cc1O: 97.4%
COc1cc(Nc2c(C#N)cnc3cc(OCCCN4CCN(C)CC4)c(OC)cc23)c(Cl)cc1Cl: 35.5%
O=C1Cc2c([nH]c3ccc([N+](=O)[O-])cc23)-c2ccccc2N1: 101%
Fc1ccc(-c2nc3n(c2-c2ccncc2)CCS3)cc1: 94.7%
CC[n+]1c(/C=C/N(C)c2ccccc2)n(-c2ccccc2)c2ccc(-c3nc4ccccc4s3)cc21: 102%
Cc1ccc(NC2=CC(=O)c3sc(C)nc3C2=O)cc1: 87.7%
Cc1cc(Nc2nc(-c3ccccc3)nc3ccccc23)n[nH]1: 75.9%

Set 4
Structure (SMILES): O=C(Nc1cnn(-c2csc(C(=O)NC3COC3)c2)c1)Nc1ccccc1Cl
Observed: enzyme activity
Concentration: 5 µM
Endpoint: remaining activity
CILK1 (Homo sapiens, UniProt Q9UPZ9); inhibitor: 110%
NLK (Homo sapiens, UniProt Q9UBE8); baseline: untreated control: 96.4%
STK26 (Homo sapiens, UniProt Q9P289); baseline: untreated control: 94.1%
MAP3K5 (Homo sapiens, UniProt Q99683); baseline: untreated control: 87.1%
ABL1 (Homo sapiens, UniProt P00519); baseline: untreated control: 82.4%
Cyclin-dependent kinase 4, with cyclin D1 (CDK4, Homo sapiens, UniProt P11802); baseline: untreated control: 90.6%
DYRK3 (Homo sapiens, UniProt O43781); baseline: untreated control: 92.6%
RIPK3 (Homo sapiens, UniProt Q9Y572); baseline: untreated control: 98.1%
TTBK1 (Homo sapiens, UniProt Q5TCY1); baseline: untreated control: 92.6%
BLK (Homo sapiens, UniProt P51451); baseline: untreated control: 77.8%
CSNK2A1 (Homo sapiens, UniProt P68400); baseline: untreated control: 95.3% and 71.1%
Tyrosine-protein kinase Lyn, isoform B (LYN, Homo sapiens, UniProt P07948); baseline: untreated control: 94.7%
ROS1 (Homo sapiens, UniProt P08922); baseline: untreated control: 102%
BMPR2 (Homo sapiens, UniProt Q13873); baseline: untreated control: 99.6%
ACVR1B (Homo sapiens, UniProt P36896); baseline: untreated control: 112%
PAK2 (Homo sapiens, UniProt Q13177); baseline: untreated control: 86.2%
PTK2 (Homo sapiens, UniProt Q05397); baseline: untreated control: 95.1%
MAP3K3 (Homo sapiens, UniProt Q99759); baseline: untreated control: 106%
STK24 (Homo sapiens, UniProt Q9Y6E0); baseline: untreated control: 110%
SIK1 (Homo sapiens, UniProt P57059); baseline: untreated control: 101%

A few entries again (set 3):
COc1cc(Nc2c(C#N)cnc3cc(OCCCN4CCN(C)CC4)c(OC)cc23)c(Cl)cc1Cl: 35.5%
O=C1Cc2c([nH]c3ccc([N+](=O)[O-])cc23)-c2ccccc2N1: 101%
Fc1ccc(-c2nc3n(c2-c2ccncc2)CCS3)cc1: 94.7%
CC[n+]1c(/C=C/N(C)c2ccccc2)n(-c2ccccc2)c2ccc(-c3nc4ccccc4s3)cc21: 102%
